Results from different studies.
A part holds a random share of what one study measured. Values joined by “and” are separate records of one study, mostly repeats; a detail may differ.
Sequence of UniProt P29317 (whole entry, looked up): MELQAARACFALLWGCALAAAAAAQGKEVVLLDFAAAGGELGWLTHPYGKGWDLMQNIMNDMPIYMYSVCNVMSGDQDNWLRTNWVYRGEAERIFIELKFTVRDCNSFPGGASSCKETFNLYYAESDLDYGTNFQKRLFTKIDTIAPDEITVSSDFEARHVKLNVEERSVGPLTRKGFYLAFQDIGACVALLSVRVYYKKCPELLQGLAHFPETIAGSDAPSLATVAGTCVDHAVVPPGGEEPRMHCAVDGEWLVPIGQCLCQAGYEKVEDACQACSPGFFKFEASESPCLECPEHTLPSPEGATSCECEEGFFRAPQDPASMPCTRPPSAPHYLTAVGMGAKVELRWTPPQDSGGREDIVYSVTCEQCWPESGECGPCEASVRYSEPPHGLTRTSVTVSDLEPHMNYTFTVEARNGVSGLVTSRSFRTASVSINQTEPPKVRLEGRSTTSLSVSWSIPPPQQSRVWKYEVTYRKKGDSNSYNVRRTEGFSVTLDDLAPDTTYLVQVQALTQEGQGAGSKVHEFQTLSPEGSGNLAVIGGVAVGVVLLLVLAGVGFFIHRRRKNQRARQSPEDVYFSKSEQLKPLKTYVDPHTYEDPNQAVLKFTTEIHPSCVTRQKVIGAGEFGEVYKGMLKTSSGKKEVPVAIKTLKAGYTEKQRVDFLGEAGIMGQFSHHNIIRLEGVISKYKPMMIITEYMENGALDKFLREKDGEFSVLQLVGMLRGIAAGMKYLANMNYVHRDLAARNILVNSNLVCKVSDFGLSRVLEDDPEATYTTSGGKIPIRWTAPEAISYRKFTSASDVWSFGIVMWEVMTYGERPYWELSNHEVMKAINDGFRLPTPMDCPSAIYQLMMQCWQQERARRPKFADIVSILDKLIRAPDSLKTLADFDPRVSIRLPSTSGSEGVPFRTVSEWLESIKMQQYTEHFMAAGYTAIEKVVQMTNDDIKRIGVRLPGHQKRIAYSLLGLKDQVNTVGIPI
Sequence of UniProt P53667 (whole entry, looked up): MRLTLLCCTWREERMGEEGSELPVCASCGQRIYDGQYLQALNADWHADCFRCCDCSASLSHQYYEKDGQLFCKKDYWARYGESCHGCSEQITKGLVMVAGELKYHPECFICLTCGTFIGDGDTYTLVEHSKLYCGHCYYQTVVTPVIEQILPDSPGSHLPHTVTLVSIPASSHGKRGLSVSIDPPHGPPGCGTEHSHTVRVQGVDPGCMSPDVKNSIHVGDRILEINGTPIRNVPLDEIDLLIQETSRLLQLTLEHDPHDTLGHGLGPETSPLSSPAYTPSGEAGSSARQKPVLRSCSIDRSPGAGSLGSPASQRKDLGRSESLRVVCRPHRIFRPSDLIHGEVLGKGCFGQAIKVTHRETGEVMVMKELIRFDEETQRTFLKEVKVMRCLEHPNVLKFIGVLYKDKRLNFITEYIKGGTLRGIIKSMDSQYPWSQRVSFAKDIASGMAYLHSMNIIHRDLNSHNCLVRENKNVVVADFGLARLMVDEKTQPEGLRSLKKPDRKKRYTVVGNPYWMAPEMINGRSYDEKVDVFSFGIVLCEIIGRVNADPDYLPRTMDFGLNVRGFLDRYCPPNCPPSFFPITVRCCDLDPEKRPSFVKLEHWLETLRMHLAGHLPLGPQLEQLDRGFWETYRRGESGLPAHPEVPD
Sequence of UniProt Q9H0K1 (whole entry, looked up): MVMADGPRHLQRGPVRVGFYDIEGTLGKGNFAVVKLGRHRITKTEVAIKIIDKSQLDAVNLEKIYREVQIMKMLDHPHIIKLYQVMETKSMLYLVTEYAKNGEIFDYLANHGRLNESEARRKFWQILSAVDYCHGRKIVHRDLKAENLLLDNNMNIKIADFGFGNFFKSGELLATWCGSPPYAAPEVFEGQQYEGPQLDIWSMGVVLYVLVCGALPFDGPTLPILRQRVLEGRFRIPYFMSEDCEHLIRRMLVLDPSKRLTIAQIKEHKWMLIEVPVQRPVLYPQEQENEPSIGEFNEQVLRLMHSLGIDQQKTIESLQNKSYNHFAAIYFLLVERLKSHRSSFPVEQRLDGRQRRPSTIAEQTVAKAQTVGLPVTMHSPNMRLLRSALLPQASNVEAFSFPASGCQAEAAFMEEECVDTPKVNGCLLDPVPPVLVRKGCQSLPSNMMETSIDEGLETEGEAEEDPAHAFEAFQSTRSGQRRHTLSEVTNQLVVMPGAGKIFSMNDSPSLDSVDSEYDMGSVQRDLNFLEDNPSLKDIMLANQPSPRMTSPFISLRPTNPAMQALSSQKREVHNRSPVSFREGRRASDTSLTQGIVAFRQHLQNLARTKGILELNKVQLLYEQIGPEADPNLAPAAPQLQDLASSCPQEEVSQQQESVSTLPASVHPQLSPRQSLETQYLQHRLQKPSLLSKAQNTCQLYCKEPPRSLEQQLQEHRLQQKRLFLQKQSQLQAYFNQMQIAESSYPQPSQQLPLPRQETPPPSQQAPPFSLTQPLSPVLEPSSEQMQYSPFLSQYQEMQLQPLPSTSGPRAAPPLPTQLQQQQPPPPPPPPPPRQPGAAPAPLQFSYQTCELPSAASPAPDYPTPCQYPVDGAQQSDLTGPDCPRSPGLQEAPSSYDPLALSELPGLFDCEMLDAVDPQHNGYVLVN

Set 1
Target: DNA polymerase theta, ATPase domain (POLQ, Homo sapiens, UniProt O75417)
Sequence of UniProt O75417 (whole entry, unmodified, looked up): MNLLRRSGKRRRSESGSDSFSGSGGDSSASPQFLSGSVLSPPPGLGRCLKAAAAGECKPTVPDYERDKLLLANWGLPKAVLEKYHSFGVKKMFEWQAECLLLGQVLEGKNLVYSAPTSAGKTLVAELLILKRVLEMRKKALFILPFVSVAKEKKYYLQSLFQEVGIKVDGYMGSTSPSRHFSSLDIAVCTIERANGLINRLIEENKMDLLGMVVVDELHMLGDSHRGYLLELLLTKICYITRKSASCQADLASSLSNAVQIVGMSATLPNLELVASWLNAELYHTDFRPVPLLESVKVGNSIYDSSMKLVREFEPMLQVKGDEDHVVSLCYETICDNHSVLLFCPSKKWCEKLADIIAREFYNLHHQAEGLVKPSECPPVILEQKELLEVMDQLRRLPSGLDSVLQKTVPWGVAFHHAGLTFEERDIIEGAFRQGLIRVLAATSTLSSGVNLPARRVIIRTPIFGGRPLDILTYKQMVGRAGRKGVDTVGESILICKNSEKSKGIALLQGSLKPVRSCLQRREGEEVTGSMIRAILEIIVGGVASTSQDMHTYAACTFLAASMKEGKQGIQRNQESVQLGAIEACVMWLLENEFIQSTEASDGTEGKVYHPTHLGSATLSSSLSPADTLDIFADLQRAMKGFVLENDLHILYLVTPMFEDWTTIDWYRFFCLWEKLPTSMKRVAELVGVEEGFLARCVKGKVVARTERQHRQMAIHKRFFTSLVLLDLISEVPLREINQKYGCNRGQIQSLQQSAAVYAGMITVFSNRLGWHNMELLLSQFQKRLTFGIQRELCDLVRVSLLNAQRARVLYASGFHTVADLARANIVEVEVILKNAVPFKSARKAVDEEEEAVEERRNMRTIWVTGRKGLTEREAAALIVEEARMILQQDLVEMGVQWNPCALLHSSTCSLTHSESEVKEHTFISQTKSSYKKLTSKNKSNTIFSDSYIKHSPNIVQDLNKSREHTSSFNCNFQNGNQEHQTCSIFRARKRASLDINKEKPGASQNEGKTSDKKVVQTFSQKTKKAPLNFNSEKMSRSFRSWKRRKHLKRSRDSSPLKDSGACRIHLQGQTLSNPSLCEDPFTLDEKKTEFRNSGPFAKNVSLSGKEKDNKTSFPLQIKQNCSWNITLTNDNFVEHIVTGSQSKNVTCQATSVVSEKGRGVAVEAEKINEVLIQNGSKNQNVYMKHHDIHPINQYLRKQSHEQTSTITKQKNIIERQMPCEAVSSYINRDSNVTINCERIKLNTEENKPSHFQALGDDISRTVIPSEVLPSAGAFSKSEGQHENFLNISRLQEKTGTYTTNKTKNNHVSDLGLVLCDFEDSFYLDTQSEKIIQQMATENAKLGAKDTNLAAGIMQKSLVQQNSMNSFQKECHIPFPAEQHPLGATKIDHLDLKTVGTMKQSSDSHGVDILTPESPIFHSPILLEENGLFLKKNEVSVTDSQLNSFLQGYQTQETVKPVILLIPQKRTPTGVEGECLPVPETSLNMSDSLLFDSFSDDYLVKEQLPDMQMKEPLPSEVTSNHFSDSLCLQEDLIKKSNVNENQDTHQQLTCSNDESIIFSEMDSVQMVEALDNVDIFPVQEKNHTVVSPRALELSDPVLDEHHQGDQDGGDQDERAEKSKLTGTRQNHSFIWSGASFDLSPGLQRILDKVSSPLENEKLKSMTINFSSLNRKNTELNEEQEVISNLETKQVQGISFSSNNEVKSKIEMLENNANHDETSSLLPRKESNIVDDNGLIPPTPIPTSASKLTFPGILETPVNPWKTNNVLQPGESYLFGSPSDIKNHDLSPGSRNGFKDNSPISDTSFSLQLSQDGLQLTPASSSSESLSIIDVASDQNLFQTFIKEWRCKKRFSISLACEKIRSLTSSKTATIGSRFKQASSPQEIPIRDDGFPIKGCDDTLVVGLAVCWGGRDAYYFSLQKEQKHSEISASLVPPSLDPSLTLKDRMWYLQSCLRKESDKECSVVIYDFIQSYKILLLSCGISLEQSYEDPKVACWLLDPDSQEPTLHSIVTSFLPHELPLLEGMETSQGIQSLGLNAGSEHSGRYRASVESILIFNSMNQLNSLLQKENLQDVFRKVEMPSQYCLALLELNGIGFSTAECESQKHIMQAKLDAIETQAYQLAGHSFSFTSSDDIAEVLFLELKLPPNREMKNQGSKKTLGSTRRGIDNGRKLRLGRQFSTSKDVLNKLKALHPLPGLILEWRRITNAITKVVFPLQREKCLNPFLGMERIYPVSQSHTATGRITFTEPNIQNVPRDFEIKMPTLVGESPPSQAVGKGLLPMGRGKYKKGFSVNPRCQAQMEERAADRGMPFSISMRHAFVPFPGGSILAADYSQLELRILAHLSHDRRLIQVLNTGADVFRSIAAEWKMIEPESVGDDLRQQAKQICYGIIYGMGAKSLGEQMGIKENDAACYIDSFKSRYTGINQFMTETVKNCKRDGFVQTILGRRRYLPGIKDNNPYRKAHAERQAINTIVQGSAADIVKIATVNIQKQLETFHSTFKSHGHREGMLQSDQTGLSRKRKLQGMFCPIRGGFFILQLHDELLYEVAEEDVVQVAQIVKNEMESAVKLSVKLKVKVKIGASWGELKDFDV
Observed: enzyme activity
Mode: inhibitor
Concentration: 77 µM
Relative to: untreated
| SMILES | remaining activity |
| --- | --- |
| CC(C)(C)C(=O)OCOP(=O)(COCCn1cnc2c(N)ncnc21)OCOC(=O)C(C)(C)C | 95.6% |
| CC(C)(C)c1nc(-c2cccc(NS(=O)(=O)c3c(F)cccc3F)c2F)c(-c2ccnc(N)n2)s1 | 97.2% |
| CC(C)c1nc(CN(C)C(=O)N[C@H](C(=O)N[C@@H](Cc2ccccc2)C[C@H](O)[C@H](Cc2ccccc2)NC(=O)OCc2cncs2)C(C)C)cs1 | 103% |
| C=CC(=O)Nc1cc2c(Nc3ccc(F)c(Cl)c3)ncnc2cc1C#CC(C)(C)N1CCN(C)CC1 | 105% and 111% and 109% |
| O=C(O)[C@]1(Cc2cccc(Nc3nccs3)n2)CC[C@@H](Oc2cccc(Cl)c2F)CC1 | 68.6% |
| COc1ccc(C(=O)CC(=O)c2ccc(C(C)(C)C)cc2)cc1 | 98.8% |
| CCC(C)(Oc1ccc(C2(c3ccc(OC(C)(CC)C(=O)O)cc3)CCCCC2)cc1)C(=O)O (stereo not drawn) | 66.7% |
| CCC1(C)CC(=O)NC1=O (stereo not drawn) | 102% |
| CC(C(=O)O)c1ccc2c(c1)[nH]c1ccc(Cl)cc12 (stereo not drawn) | 109% |
| CC(=O)OCC(=O)[C@@]1(O)CC[C@H]2[C@@H]3CCC4=CC(=O)CC[C@]4(C)[C@@]3(F)[C@@H](O)C[C@@]21C | 100% |
| NC(=O)c1ccc(I)c([N+](=O)[O-])c1 | 104% |
| Nc1ccc(S(=O)(=O)Nc2nccs2)cc1 | 107% and 73.8% |
| COc1ccc(CNCc2cccc3ccccc23)cc1 | 105% |

Set 2
Structure (SMILES): Cc1cc(Nc2cc(N3CCN(C)CC3)nc(Sc3ccc(NC(=O)C4CC4)cc3)n2)[nH]n1
Observed: enzyme activity
Mode: inhibitor
Concentration: 0.5 µM
Relative to: control
| target | remaining activity [%] |
| --- | --- |
| Calcium/calmodulin-dependent protein kinase type 1 (CAMK1, Homo sapiens, UniProt Q14012) | 103 |
| Serine/threonine-protein kinase PAK 1 (PAK1, Homo sapiens, UniProt Q13153) | 100 |
| Ephrin type-A receptor 6 (EPHA6, Homo sapiens, UniProt Q9UF33) | 48.4 |
| Tyrosine-protein kinase JAK1 (JAK1, Homo sapiens, UniProt P23458) | 91.9 |
| Serine/threonine-protein kinase PAK 6 (PAK6, Homo sapiens, UniProt Q9NQU5) | 104 |
| Dual specificity protein kinase CLK2 (CLK2, Homo sapiens, UniProt P49760) | 88 |
| Ribosomal protein S6 kinase alpha-3 (RPS6KA3, Homo sapiens, UniProt P51812) | 82.1 |
| Casein kinase I isoform delta (CSNK1D, Homo sapiens, UniProt P48730) | 92.6 |
| Insulin-like growth factor 1 receptor (IGF1R, Homo sapiens, UniProt P08069) | 96.3 |
| Ephrin type-A receptor 2 (EPHA2, Homo sapiens, UniProt P29317) | 34.4 |
| SRSF protein kinase 1 (SRPK1, Homo sapiens, UniProt Q96SB4) | 96.4 |
| Serine/threonine-protein kinase Sgk2 (SGK2, Homo sapiens, UniProt Q9HBY8) | 95.5 |
| Dual specificity protein kinase CLK1 (CLK1, Homo sapiens, UniProt P49759) | 106 |
| Tyrosine-protein kinase Tec (TEC, Homo sapiens, UniProt P42680) | 112 |
| Mitogen-activated protein kinase kinase kinase 20 (MAP3K20, Homo sapiens, UniProt Q9NYL2) | 91 |
| Tyrosine-protein kinase receptor TYRO3 (TYRO3, Homo sapiens, UniProt Q06418) | 85 |
| Calcium/calmodulin-dependent protein kinase kinase 1 (CAMKK1, Homo sapiens, UniProt Q8N5S9) | 86 |
| Cyclin-dependent kinase 2, with cyclin E (CDK2, Homo sapiens, UniProt P24941) | 94.4 |
| Casein kinase I isoform epsilon (CSNK1E, Homo sapiens, UniProt P49674) | 98.8 |
| Protein kinase C zeta type (PRKCZ, Homo sapiens, UniProt Q05513) | 76.4 |
| Serine/threonine-protein kinase SIK2 (SIK2, Homo sapiens, UniProt Q9H0K1) | 80 |
| Protein kinase C theta type (PRKCQ, Homo sapiens, UniProt Q04759) | 86 |
| Muscle, skeletal receptor tyrosine-protein kinase (MUSK, Homo sapiens, UniProt O15146) | 103 |

Set 3
SMILES: Cc1nc(Nc2ncc(C(=O)Nc3c(C)cccc3Cl)s2)cc(N2CCN(CCO)CC2)n1
Mode: inhibitor
| target | setting | inhibition [%] |
| --- | --- | --- |
| Serine/threonine-protein kinase ULK3 (ULK3, Homo sapiens, UniProt Q6PHR2) | 10 µM | < 50 |
| Tyrosine-protein kinase JAK2 (JAK2, Homo sapiens, UniProt O60674) | 10 µM | 90 |
| Calcium/calmodulin-dependent protein kinase type 1D (CAMK1D, Homo sapiens, UniProt Q8IU85) | 10 µM | < 50 |
| Aurora kinase B (AURKB, Homo sapiens, UniProt Q96GD4) | 1 µM | < 50 |
| Mitogen-activated protein kinase kinase kinase kinase 5 (MAP4K5, Homo sapiens, UniProt Q9Y4K4) | 10 µM | 100 |
| Serine/threonine-protein kinase Chk1 (CHEK1, Homo sapiens, UniProt O14757) | 1 µM | < 50 |
| Glycogen synthase kinase-3 beta (GSK3B, Homo sapiens, UniProt P49841) | 1 µM | < 50 |
| Discoidin domain-containing receptor 2 (DDR2, Homo sapiens, UniProt Q16832) | 1 µM | 95 |
| Serine/threonine-protein kinase 26 (STK26, Homo sapiens, UniProt Q9P289) | 10 µM | 93 |
| Ephrin type-A receptor 1 (EPHA1, Homo sapiens, UniProt P21709) | 10 µM | 100 |
| RAF proto-oncogene serine/threonine-protein kinase (RAF1, Homo sapiens, UniProt P04049) | 10 µM | 93 |
| Serine/threonine-protein kinase PAK 2 (PAK2, Homo sapiens, UniProt Q13177) | 10 µM | < 50 |
| Dual specificity protein kinase TTK (TTK, Homo sapiens, UniProt P33981) | 10 µM | < 50 |
| Activin receptor type-2B (ACVR2B, Homo sapiens, UniProt Q13705) | 10 µM | 96 |
| MAP kinase-interacting serine/threonine-protein kinase 1 (MKNK1, Homo sapiens, UniProt Q9BUB5) | 1 µM | < 50 |
| NUAK family SNF1-like kinase 1 (NUAK1, Homo sapiens, UniProt O60285) | 10 µM | < 50 |
| LIM domain kinase 1 (LIMK1, Homo sapiens, UniProt P53667) | 10 µM | 99 |

Set 4
SMILES: O=C(Nc1cccnn1)N1CCC(=Cc2cccc(Oc3ccc(C(F)(F)F)cn3)c2)CC1
Observed: cell-free assay
Method: competition with immobilised ligand
Concentration: 1 µM
| target | remaining binding [%] |
| --- | --- |
| Ephrin type-A receptor 2 (EPHA2, Homo sapiens, UniProt P29317) | 81 |
| Calcium/calmodulin-dependent protein kinase type 1B (PNCK, Homo sapiens, UniProt Q6P2M8) | 100 |
| Casein kinase I isoform gamma-2 (CSNK1G2, Homo sapiens, UniProt P78368) | 92 |
| Cyclin-dependent kinase 4 (CDK4, Homo sapiens, UniProt P11802) | 100 |
| Mitogen-activated protein kinase kinase kinase kinase 1 (MAP4K1, Homo sapiens, UniProt Q92918) | 80 |
| Membrane-associated tyrosine- and threonine-specific cdc2-inhibitory kinase (PKMYT1, Homo sapiens, UniProt Q99640) | 100 |
| Ankyrin repeat and protein kinase domain-containing protein 1 (ANKK1, Homo sapiens, UniProt Q8NFD2) | 96 |
| Phosphatidylinositol 4,5-bisphosphate 3-kinase catalytic subunit alpha isoform (PIK3CA, Homo sapiens, UniProt P42336, E545A) | 100 |
| Protein-tyrosine kinase 2-beta (PTK2B, Homo sapiens, UniProt Q14289) | 97 |
| Ephrin type-B receptor 3 (EPHB3, Homo sapiens, UniProt P54753) | 81 |
| Tyrosine-protein kinase Mer (MERTK, Homo sapiens, UniProt Q12866) | 81 |
| Receptor-type tyrosine-protein kinase FLT3 (FLT3, Homo sapiens, UniProt P36888, R834Q) | 100 |
| Serine/threonine-protein kinase PRP4 homolog (PRPF4B, Homo sapiens, UniProt Q13523) | 100 |
| Megakaryocyte-associated tyrosine-protein kinase (MATK, Homo sapiens, UniProt P42679) | 100 |
| Mitogen-activated protein kinase kinase kinase 5 (MAP3K5, Homo sapiens, UniProt Q99683) | 100 |
| LIM domain kinase 1 (LIMK1, Homo sapiens, UniProt P53667) | 88 |
| Serine/threonine-protein kinase Sgk1 (SGK1, Homo sapiens, UniProt O00141) | 100 |
| Cyclin-dependent kinase 9 (CDK9, Homo sapiens, UniProt P50750) | 93 |
| Angiopoietin-1 receptor (TEK, Homo sapiens, UniProt Q02763) | 94 |
| Macrophage colony-stimulating factor 1 receptor (CSF1R, Homo sapiens, UniProt P07333) | 95 |
| Cyclin-dependent kinase 11B (CDK11B, Homo sapiens, UniProt P21127) | 100 |
| Serine/threonine-protein kinase pim-1 (PIM1, Homo sapiens, UniProt P11309) | 85 |
| Receptor-type tyrosine-protein kinase FLT3 (FLT3, Homo sapiens, UniProt P36888, N841I) | 69 |
| Mitogen-activated protein kinase 4 (MAPK4, Homo sapiens, UniProt P31152) | 95 |
| Protein-tyrosine kinase 6 (PTK6, Homo sapiens, UniProt Q13882) | 100 |

Repeated from above (set 1):
| SMILES | remaining activity |
| --- | --- |
| COc1ccc(CNCc2cccc3ccccc23)cc1 | 105% |
| CCC(C)(Oc1ccc(C2(c3ccc(OC(C)(CC)C(=O)O)cc3)CCCCC2)cc1)C(=O)O (stereo not drawn) | 66.7% |
| COc1ccc(C(=O)CC(=O)c2ccc(C(C)(C)C)cc2)cc1 | 98.8% |
| C=CC(=O)Nc1cc2c(Nc3ccc(F)c(Cl)c3)ncnc2cc1C#CC(C)(C)N1CCN(C)CC1 | 105% and 111% and 109% |
